# Measured values of several laboratories.
# Protocols differ between the studies behind these lines.
# TDP1: Tyrosyl-DNA phosphodiesterase 1 (TDP1, Homo sapiens, UniProt Q9NUW8)
# Sequence of UniProt Q9NUW8 (whole entry, looked up): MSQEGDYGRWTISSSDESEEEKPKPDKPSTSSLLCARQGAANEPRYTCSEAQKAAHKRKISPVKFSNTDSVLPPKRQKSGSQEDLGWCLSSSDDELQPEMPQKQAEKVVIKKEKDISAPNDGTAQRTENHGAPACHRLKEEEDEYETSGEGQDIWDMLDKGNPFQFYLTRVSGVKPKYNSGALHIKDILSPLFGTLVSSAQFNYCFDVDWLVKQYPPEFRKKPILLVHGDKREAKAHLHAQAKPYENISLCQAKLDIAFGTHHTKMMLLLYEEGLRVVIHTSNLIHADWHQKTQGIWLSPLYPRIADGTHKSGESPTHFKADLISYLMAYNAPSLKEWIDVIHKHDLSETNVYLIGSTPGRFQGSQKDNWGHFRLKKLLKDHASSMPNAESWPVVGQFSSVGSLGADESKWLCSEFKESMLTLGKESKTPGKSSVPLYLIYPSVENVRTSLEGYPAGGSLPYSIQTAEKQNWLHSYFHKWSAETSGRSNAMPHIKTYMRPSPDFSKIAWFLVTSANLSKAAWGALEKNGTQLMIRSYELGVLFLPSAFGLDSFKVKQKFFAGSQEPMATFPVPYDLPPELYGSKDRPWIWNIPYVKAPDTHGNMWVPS
Compound,target or system,assay,system,setting,measurement,value
CN(C)C(=O)c1cccc(N2Cc3cn(Cc4ccccc4F)nc3C2)c1,,metabolic stability,"rat, liver microsomes",,half-life,46 min
C=C(NC(=O)c1csc(-c2nc3c(cc2O)-c2nc(cs2)C(=O)NC(C(C)O)C(=O)NC(=C(C)OC)c2nc(cs2)C(=O)NC2c4nc(cs4)C(=O)NC(COC(=O)c4c5c6c(cccc6n4O)COC(=O)C(OC4CC(C)(O)C(N(C)C)C(C)O4)C2OC5)c2nc-3cs2)n1)C(N)=O (centres unmarked),,,"ICR mice, Streptococcus pneumoniae ATCC 49169 infected, immunocompromised, blood","intravenous, 16 mg/kg/day twice daily",half-life,505 min
Cn1ccc(-c2cc(Cl)c(Cl)c3[nH]c4c(c23)CN(C(=O)CO)CC4)n1,,,"C57BL/6 mouse, blood","intravenous, 0.5 mg/kg",half-life,36.1 min
CC(C)(C)S(=O)(=O)c1ccccc1C=NOCc1ccc(-c2nc3cc(-c4ccccc4)ccn3c2Nc2ccc(C(=O)O)cc2)cc1,TDP1,"enzyme activity, inhibitor",,"100 µM, unpurified compound",inhibition,71.4%
Cc1ccc(CNc2nc3c(cnn3C(C)(C)C)c(=O)n2Cc2cccc(F)c2)cn1,,metabolic stability,"rat, liver microsomes",,half-life,2.2 min
CN(C)C(=O)c1cccc(N2Cc3cnn(Cc4ccc(F)cc4)c3C2)c1,,metabolic stability,"rat, liver microsomes",,half-life,8 min
O=C(O)c1ccc(Nc2c(-c3ccc(CON=Cc4ccc(N5CCCC5=O)cc4)cc3)nc3cc(-c4ccccc4)ccn23)cc1,TDP1,"enzyme activity, inhibitor",,100 µM,inhibition,90.7%
CN(C)C(=O)c1cccc(N2Cc3cn(Cc4cc(Cl)cc(Cl)c4)nc3C2)c1,,metabolic stability,"rat, liver microsomes",,half-life,22 min
COc1cnc2cccc(N3CCc4c(cc(Cn5ccnc5)cc4-c4cn(C)nc4C(F)(F)F)C3=O)c2c1,,,"male CD-1 mouse, plasma","oral, 50 mg/kg",half-life,96 min
COc1cccc2c(N3CCC(CCP(=O)(O)O)CC3)ncnc12,,,"female C57BL/6 mouse, serum","subcutaneous, 100 mg/kg",half-life,60 min
Cc1cc(NC(=O)[C@H](O)c2cc(F)cc(F)c2)ccc1-c1cnc(N)c(C(=O)NC(C)C)c1,,,"female nude mouse, plasma","oral, 30 mg/kg, single dose",half-life,162 min

# Excerpt of the above:
Compound,target or system,assay,system,setting,measurement,value
COc1cccc2c(N3CCC(CCP(=O)(O)O)CC3)ncnc12,,,"female C57BL/6 mouse, serum","subcutaneous, 100 mg/kg",half-life,60 min
